Measurements pooled from the literature.
Each line is one published result; not all experiments were run side by side. Values joined by “and” are separate records of one study, mostly repeats; a detail may differ. ± gives the spread as reported.

Structure (SMILES)	cell line	test	system	conditions	how to read	quantity	result
CC(C)N1CCC(NC2CCN(c3cccc(-c4cc5cc(F)ccc5[nH]4)c3)CC2)CC1	MDA-MB-435	–	–	–	–	GI50	1440 nM
O=C(c1cc(-n2sc3ncccc3c2=O)ccc1Cl)N1CCOCC1	HIV-infected PBMCs	–	–	1.0 µM, two donors	–	CD4 surface recovery	6 ± 3.6%
COc1c(C)c2c(c(O)c1C/C=C(\C)CCC(=O)O)C(=O)OC2	L-363	cell proliferation	blood cancer	–	–	IC50	407 nM
NCCc1ccccn1	primary rat hippocampal/cortical neuron-glia cultures	–	–	1 µM, together with: 1 µM α-synuclein oligomers	–	reversal of trafficking deficit	-18.4%
COc1ccc2c(c1)[nH]c1c(C)nccc12	DU-145	bisulfite pyrosequencing, measured: RASSF1A promoter CpG site 11	–	concentration not given	baseline: vehicle	methylation reduction	0.59%
Nc1ncc(-c2nc(N3CCOCC3)nc(N3CCOCC3)n2)c(C(F)F)n1	COLO-829	–	–	72 h	–	GI50	1150 nM
O=S(=O)(c1ccc(O)cc1)c1ccc(O)cc1	HepG2 spheroids	Hoechst flow cytometry	–	1 µM, 96 h	–	S phase cells	11.2 ± 5.37%
COc1cnc(OC)n2nc(NS(=O)(=O)c3c(OCC(F)F)cccc3C(F)(F)F)nc12	HEK293T	cytotoxicity, CCK-8	–	6.25 µM, 72 h	–	inhibition	0.1 ± 0.34%
C/C=C(/C)C(=O)O[C@H]1C(C)=C2[C@H]([C@@H]1OC(=O)CCCCCCC)[C@@](C)(OC(C)=O)C[C@H](OC(=O)CCC)[C@@]1(O)[C@H]2OC(=O)[C@@]1(C)O	HEK293	western blot, measured: phospho-eIF2α over total eIF2α	–	3 µM, 6 h, unit not given	baseline: mock	protein level	1.59 and 1.39 and 1.44
O=C1N(Cc2ccccc2Cl)c2ccccc2C12NN=C(c1ccccc1)S2 (centres unmarked)	MDA-MB-468	gene expression array, measured: DEDD2 mRNA	–	10 µM, 12 h	baseline: untreated, up	fold change	2.01
O=C1CCP(=S)(c2ccccc2)CC1	HaCaT	trypan blue	–	IC50, 72 h	–	viability reduction	27 to 31%
C[C@H]1[C@H](C)CC[C@]2(C(=O)O)CC[C@]3(C)C(=CC[C@@H]4[C@@]5(C)CC[C@H](O)C(C)(C)[C@@H]5CC[C@]43C)[C@H]12	3T3	cell growth, MTT	–	7.25 µg/mL, 48 h	–	cell survival	77.44 ± 0.46%
Nc1ncnc2c1ncn2[C@@H]1O[C@@H]2COP(=O)(O)O[C@H]3[C@@H](O)[C@H](n4cnc5c(=O)[nH]cnc54)O[C@@H]3COP(=O)(O)O[C@H]2[C@H]1O	HFF-1	RNA sequencing, measured: Regulated Necrosis	–	upregulated pathway	baseline: Zika virus alone	pathway fold enrichment	7.01
Cc1ccc2c(c1)C=Cc1cc(C)ccc1C2c1cn(Cc2ccc(C(=O)Nc3nn[nH]n3)o2)c(=O)[nH]c1=S	N2a	fluorescence signal increase, inhibitor	–	1 µM, together with: BzATP 300 µM	–	effect on signal	no effect
CN1CCN(C2(CNC3CCN(c4cccc(-c5cc6cc(F)ccc6[nH]5)c4)CC3)CCC2)CC1	BT-549	–	–	–	–	GI50	1720 nM
CC(C)C[C@H](NC(=O)[C@H](CCc1ccccc1)NC(=O)CN1CCOCC1)C(=O)N[C@@H](Cc1ccccc1)C(=O)N[C@@H](CC(C)C)C(=O)[C@@]1(C)CO1	patient normal conditionally reprogrammed cells	RNA-seq, measured: KIF1A mRNA	human	concentration not given	baseline: DMSO	fold change	-405
C/C=C(/C)C(=O)O[C@H]1C(C)=C2[C@H]([C@@H]1OC(=O)CCCCCCC)[C@@](C)(OC(C)=O)C[C@H](OC(=O)CCC)[C@@]1(O)[C@H]2OC(=O)[C@@]1(C)O	HEK293T	RNA-seq, measured: ASNS mRNA	–	10 µM, 6 h	baseline: vehicle	log2 fold change	2.24
CC(=O)O[C@H]1C(=O)[C@@]2(C)[C@H]([C@H](OC(=O)c3ccccc3)[C@]3(O)C[C@H](OC(=O)[C@H](O)[C@@H](NC(=O)c4ccccc4)c4ccccc4)C(C)=C1C3(C)C)[C@]1(OC(C)=O)CO[C@@H]1C[C@@H]2O	HEK293T	cytotoxicity, CCK-8	–	12.5 µM, 72 h	–	inhibition	> 90%
C[C@]12CC[C@H](O)C[C@H]1CC[C@@H]1[C@@H]2CC[C@]2(C)[C@@H](c3ccc(=O)oc3)CC[C@]12O	MCF7	RT-qPCR, measured: PGR	–	20 nM, 48 h, without estradiol, unit not given	baseline: untreated	mRNA level	0.619 and 0.768 and 0.61

Structure (SMILES)	cell line	test	system	conditions	how to read	quantity	result
Oc1ccc(C2(c3ccc(O)cc3)c3ccccc3-c3ccccc32)cc1	HepG2 spheroids	Hoechst flow cytometry	–	1 µM, 24 h	–	S phase cells	8.01 ± 1.77%
Cc1cc(NS(=O)(=O)c2ccc(NC(=O)/C(C#N)=C/c3ccc(N4CCCCC4)cc3)cc2)no1	HCT-116	cytotoxicity, MTT	–	–	baseline: HSF over HCT-116 IC50	selectivity index	> 13.8
CC(=O)c1ccc(C(O)C(C)C)cc1 (racemic)	HEK-293T	–	–	250 µM, 48 h	–	cells killed	50%
Cn1cncc1C1=CN(c2ncnc3[nH]cnc23)CCS1	Hs-578T	–	–	–	–	CC50	> 200000 nM
Oc1cc(O)cc(-c2cc3ccc(O)cc3o2)c1	3T3	cell growth, MTT	–	7.25 µg/mL, 48 h	–	cell survival	74.58 ± 0.42%
COc1cc(CCC[P+](c2ccccc2)(c2ccccc2)c2ccccc2)c(OC)c2c1OCO2.[I-]	BT-549	SRB	–	–	–	TGI	-5.07 log M
COc1ccc([C@H]2c3[nH]c4ccc(Cl)cc4c3CCN2C(=O)Oc2ccc(Cl)cc2)cc1	CD19+ B cells with PBMC	cytokine secretion, measured: s-IL-17F	–	0.01 µM, 72 h, BioMAP BT system	–	inhibition	58%
COc1c(CCC[P+](c2ccccc2)(c2ccccc2)c2ccccc2)cc2c(c1OC)OCO2.[I-]	MDA-MB-435	SRB	–	–	–	GI50	-6.34 log M
CC(c1ccccc1)(c1ccc(O)cc1)c1ccc(O)cc1	HepG2 spheroids	Hoechst flow cytometry	–	0.10 µM, 96 h	–	G1 phase cells	72.5 ± 0.82%
CN1CCN(S(=O)(=O)c2cc([N+](=O)[O-])ccc2N(CCOS(C)(=O)=O)CCOS(C)(=O)=O)CC1	sample A B-ALL PDX cells	cell viability	ex vivo	48 h, together with: AKR1C3 inhibitor 1 µM, 1 h pretreatment	–	IC50	22000 nM
Cn1cc2cc(C(F)(F)c3nnc4ccc(-c5cnn(C6CC6)c5)nn34)c(F)cc2n1	MKN-45	PI flow cytometry	–	200 nM, 24 h	–	cells in G1 phase	90.5% and 90.9% and 90.2%
CC(C)=CCc1c(O)cc(O)cc1-c1cc2ccc(O)c(CC=C(C)C)c2o1	MCF7	cell growth, MTT	–	7.25 µg/mL, 48 h	–	cell survival	78.6 ± 1.2%
Cn1cc(-c2ccc(-c3cncc(Cl)c3N3CCC4(CCNC4=O)CC3)cc2)cn1	COLO 205	microarray, measured: BIRC5	–	concentration not given, 6 h, gene set Survivin	baseline: untreated cells	fold change in expression	-3.3
CCCCCCCCCCCCCC(=O)O[C@@H]1[C@@H](C)[C@@]2(O)[C@@H](C=C(CO)C[C@]3(O)C(=O)C(C)=C[C@@H]23)[C@@H]2C(C)(C)[C@]12OC(C)=O	HEL	flow cytometry	–	concentration not given	baseline: cells	sub-G0 cells	2.63% and 2.85% and 2.37%
Cc1nn(-c2nc3ccc(Cl)c(Cl)c3[nH]2)c(O)c1C1OC(=O)c2ccccc21 (centres unmarked)	RAW-ISG	CCK-8	–	200 µM	–	viability	9.7% and 14.4% and 10.7% and 17.4% and 19.7%
CCN(CC)c1ccc(C=NNC(=O)CSc2nc3ccccc3c(=O)n2Cc2ccc(S(N)(=O)=O)cc2)c(O)c1	SK-MEL-28	NCI five-dose screen	–	–	–	CC50	> 100000 nM
Cc1cccc(-c2cccc(C)n2)n1.Cc1cccc(-c2cccc(C)n2)n1.F[P-](F)(F)(F)(F)F.F[P-](F)(F)(F)(F)F.[Ru+2].c1ccc2cc(-c3nc4c5cccnc5c5ncccc5c4[nH]3)ccc2c1	SK-MEL-28	–	–	normoxia, together with: blue light 453 nm, 100 J/cm2	baseline: dark over light EC50	phototoxicity index	1
CC(C)[C@H](N)C(=O)N1CCC[C@H]1B(O)O	Ker-CT keratinocytes, GSDME knockout	inducer, ELISA	–	concentration not given, compound alone	–	IL-1beta release	617 pg/mL and 638 pg/mL and 728 pg/mL
Oc1ccc(C(c2ccc(O)cc2)(C(F)(F)F)C(F)(F)F)cc1	HepG2 spheroids	Hoechst flow cytometry	–	0.1 µM, 24 h	–	G2 phase cells	18.6 ± 2.6%

A few entries again:
Structure (SMILES)	cell line	test	system	conditions	how to read	quantity	result
COc1ccc([C@H]2c3[nH]c4ccc(Cl)cc4c3CCN2C(=O)Oc2ccc(Cl)cc2)cc1	CD19+ B cells with PBMC	cytokine secretion, measured: s-IL-17F	–	0.01 µM, 72 h, BioMAP BT system	–	inhibition	58%
Cc1nn(-c2nc3ccc(Cl)c(Cl)c3[nH]2)c(O)c1C1OC(=O)c2ccccc21 (centres unmarked)	RAW-ISG	CCK-8	–	200 µM	–	viability	9.7% and 14.4% and 10.7% and 17.4% and 19.7%
COc1cc(CCC[P+](c2ccccc2)(c2ccccc2)c2ccccc2)c(OC)c2c1OCO2.[I-]	BT-549	SRB	–	–	–	TGI	-5.07 log M
COc1c(CCC[P+](c2ccccc2)(c2ccccc2)c2ccccc2)cc2c(c1OC)OCO2.[I-]	MDA-MB-435	SRB	–	–	–	GI50	-6.34 log M
CC(c1ccccc1)(c1ccc(O)cc1)c1ccc(O)cc1	HepG2 spheroids	Hoechst flow cytometry	–	0.10 µM, 96 h	–	G1 phase cells	72.5 ± 0.82%
